Measurements gathered from unrelated publications.
Lines come from different studies, so protocols differ. Values joined by “and” are separate records of one study, mostly repeats; a detail may differ. Numbers after ± are the reported error.

SMILES	target or system	assay	test system	conditions	how to read	measurement	result
NCCOc1cc(C(=O)Nc2cc(OCCN3CCCC3)c3ccccc3n2)nc(C(=O)Nc2cc(OCCN3CCCC3)c3ccccc3n2)c1	human telomeric G-quadruplex DNA	FRET melting	–	1 µM, pH 7.4, added: 60 mM potassium	–	ΔTm	35.5 ± 0.9 K
CN(C)CCCn1c(=O)c2cc(Br)c3c(=O)n(CCCN(C)C)c(=O)c4c5[nH]c6ccc(C(=O)O)cc6[nH]c5c(c1=O)c2c34	double-stranded DNA	FRET melting	–	0.25 µM, K+ 100 mM	–	ΔTm	1.5 ± 0.1 °C
CSCC[C@H](NC(C)=O)C(=O)O	porcine kidney aminoacylase 1	substrate	–	without Co2+	–	kcat	~20 s⁻¹
CN(C)CCCOc1cc(NC(=O)c2cccc(C(=O)Nc3cc(OCCCN(C)C)c4ccccc4n3)n2)nc2ccccc12	double-stranded DNA	FRET melting	–	1 µM, pH 7.4, 60 mM potassium, added: oligonucleotide 200 nM	–	delta Tm	0.8 ± 0.3 K
c1ccc(-c2n[nH]cc2-c2ccnc3ccccc23)nc1	orf19.4575 kinase Candida albicans	MIB/MS competition binding	Candida albicans cell lysate	10 µM	baseline: DMSO, lower = stronger binding	log2 fold change	1.62
CC[C@@H](C(=O)Nc1ccc(C(N)=O)c(F)c1)n1cc(OC)c(-c2cc(Cl)ccc2-n2cc(C(F)(F)F)nn2)cc1=O	human chymotrypsin	enzyme activity	–	–	–	IC50	> 10000 nM
C#CCOc1cc(C(=O)Nc2cc(OCCCN)c3ccccc3n2)nc(C(=O)Nc2cc(OCCCN)c3ccccc3n2)c1	human telomeric G-quadruplex DNA	FRET melting	–	1 µM, pH 7.4, added: 60 mM potassium	–	ΔTm	18.3 ± 0.5 K
CC(C)OC(=O)OCOP(=O)(CO[C@H](C)Cn1cnc2c(N)ncnc21)OCOC(=O)OC(C)C	HIV-1	viral replication	human immunodeficiency virus 1	–	–	IC90	10.8 nM
CC[C@@H]1[C@H](F)C(=O)N[C@@H]1COc1nccc2cc(C(N)=O)c(OC)cc12	Aurora A, B, C kinases	ATP-site binding, ActivX kinase profiling	THP-1 cell lysate	ATP-loop probe peptide	–	IC50	2800 nM
N[C@@H]1CCN(c2nccc(-c3cnn4ncccc34)n2)C1	human kinase panel	KINOMEscan	–	concentration not given	baseline: control	remaining binding	80% and 58% and 100%
O=c1oc2c(O)c(O)cc3c(=O)oc4c(O)c(O)cc1c4c23	OCI-Ly1	–	–	0.5 µM, 120 h	–	viability	86.3%
N#Cc1ccc2c(-c3ccncc3)c(-c3ccc(F)cc3)nn2c1	orf19.4575 kinase Candida albicans	MIB/MS competition binding	Candida albicans cell lysate	10 µM	baseline: DMSO, lower = stronger binding	log2 fold change	-0.179
CC(Nc1nc(N2CCCC2)nc2ccccc12)c1ccccc1 (centres unmarked)	transportin-1/2	FUS nuclear import, high content imaging	HeLa Kyoto reporter	0.03 µM, 2 h	–	cells with nuclear reporter	91.8%
NCCCOc1cc(NC(=O)c2cc(OCCN)cc(C(=O)Nc3cc(OCCCN)c4ccccc4n3)n2)nc2ccccc12	double-stranded DNA	FRET melting	–	1 µM, pH 7.4, 60 mM potassium, added: oligonucleotide 200 nM	–	delta Tm	0.9 ± 0.2 K
Cc1cc(C)c(Nc2ccnc(Nc3ccc(C#N)cc3)n2)c(C)c1	HIV-1	viral replication	human immunodeficiency virus 1	–	–	IC90	38.5 nM
CN(C)CCCn1c(=O)c2ccc3c(=O)n(CCCN(C)C)c(=O)c4c5[nH]c6cc([N+](=O)[O-])ccc6[nH]c5c(c1=O)c2c34	double-stranded DNA	FRET melting	–	0.25 µM, K+ 100 mM	–	ΔTm	1.6 ± 0.5 °C
Nc1ccn([C@H]2CC[C@@H](CO)O2)c(=O)n1	HIV-1	viral replication	human immunodeficiency virus 1	–	–	IC90	939 nM
C#Cc1cc(-c2cc(Nc3nc(N[C@@H](C)c4ccc(F)cn4)ncc3Cl)n[nH]2)ccc1C=O	EGFR del746-750 T790M (human)	kinase activity	–	200 nM	–	inhibition	4.67% and 4.41%
COc1ccc(CNc2c(CO)cnc3c(C4CC4)cc(C#N)cc23)cn1	PDE1	enzyme activity	–	–	–	IC50	> 10000 nM

SMILES	target or system	assay	test system	conditions	how to read	measurement	result
Oc1ccccc1-c1n[nH]cc1-c1ccnc2ccccc12	STE11 (Candida albicans)	kinase binding, MIB/MS competition	Candida albicans lysate	10 µM	baseline: DMSO	log2 fold change	0.39
Cc1n[nH]c2ccc(-c3cc(OC[C@@H](N)Cc4ccccc4)cnc3-c3ccoc3)cc12	orf19.4575 kinase Candida albicans	MIB/MS competition binding	Candida albicans cell lysate	1 µM	baseline: DMSO, lower = stronger binding	log2 fold change	-0.272
F[C@@H]1CCN(c2nccc(-c3cnn4ncccc34)n2)C1	human kinase panel	KINOMEscan	–	concentration not given	baseline: control	remaining binding	100% and 82%
Nc1nc2c(nc(Br)n2[C@@H]2O[C@@H]3COP(=O)(O)O[C@H]3[C@H]2O)c(=O)[nH]1	cone CNG channel	–	striped bass (Morone saxatilis), cone outer segment	30 µM, -35 mV	–	steady-state current	-415 ± 107 pA
NC(=O)C1=CN([C@@H]2O[C@H](COP(=O)(O)OP(=O)(O)OC[C@H]3O[C@@H](n4cnc5c(N)ncnc54)[C@H](O)[C@@H]3O)[C@@H](O)[C@H]2O)C=CC1	FSP1 F15A mutant	substrate	–	added: 100 µM co-substrate	–	kcat	0.48 ± 0.02 s⁻¹
N#Cc1ccn2c(-c3ccncc3)c(-c3ccc(F)cc3)nc2c1	orf19.4575 kinase Candida albicans	MIB/MS competition binding	Candida albicans cell lysate	10 µM	baseline: DMSO, lower = stronger binding	log2 fold change	0.119
C[n+]1cccc2cc(C=NNC(=O)c3ccc4ccc5ccc(C(=O)NN=Cc6ccc7c(ccc[n+]7C)c6)nc5c4n3)ccc21.[I-].[I-]	human telomeric G-quadruplex DNA	UV melting	–	3 µM, 100 mM potassium, added: DNA 3 µM	–	delta Tm	1.5 °C
c1coc(-c2n[nH]cc2-c2ccnc3ccccc23)c1	KNS1 (Candida albicans)	kinase binding, MIB/MS competition	Candida albicans lysate	10 µM	baseline: DMSO	log2 fold change	0.01
NCCOc1cc(NC(=O)c2cccc(C(=O)Nc3cc(OCCN)c4ccccc4n3)n2)nc2ccccc12	double-stranded DNA	FRET melting	–	1 µM, pH 7.4, 60 mM potassium, added: oligonucleotide 200 nM	–	delta Tm	0 ± 0.1 K
COc1cccc(Nc2nc(NCC3CCCO3)c3ccccc3n2)c1.Cl (centres unmarked)	Trypanosoma cruzi ribosome	translation, measured: Renilla luciferase	Trypanosoma cruzi extract	40 µM	–	inhibition	74.5%
CCN1CCN(Cc2ccc(NC(=O)c3ccc(C)c(/C=C/c4cnc5[nH]ccc5c4OC)c3)cc2)CC1	ABL/ARG kinases (human)	KiNativ profiling	Huh-7 cell lysate	1.0 µM	–	inhibition	> 80%
CCCCc1nc2cc(/C=C/C(=O)NO)ccc2n1CCN(CC)CC	OCI-Ly1	–	–	0.1 µM, 120 h	–	viability	41%
CN(C)CCCn1c(=O)c2cc(Br)c3c(=O)n(CCCN(C)C)c(=O)c4c5[nH]c6ccc([N+](=O)[O-])cc6[nH]c5c(c1=O)c2c34	double-stranded DNA	FRET melting	–	0.25 µM, K+ 100 mM	–	ΔTm	1.1 ± 0.6 °C
O=C(Nc1cc(OCCN2CCCC2)c2ccccc2n1)c1cc(OCCN2CCCC2)cc(C(=O)Nc2cc(OCCN3CCCC3)c3ccccc3n2)n1	c-kit2 G-quadruplex DNA	FRET melting	–	1 µM, pH 7.4, added: 60 mM potassium	–	ΔTm	14.9 ± 0.7 K
CCCCCCCC(=O)OC[C@H](COP(=O)(O)O[C@@H]1[C@H](O)[C@H](O)[C@@H](OP(=O)(O)O)[C@H](OP(=O)(O)O)[C@H]1O)OC(=O)CCCCCCC	Kv7.2/Kv7.3(EEE) mutant channel	channel activation, activator, activation curve fit	–	model 2	–	maximal open probability	0.359
NCCOc1cc(NC(=O)c2cc(OCc3c[nH]nn3)cc(C(=O)Nc3cc(OCCN)c4ccccc4n3)n2)nc2ccccc12	human telomeric G-quadruplex DNA	FRET melting	–	1 µM, pH 7.4, added: 60 mM potassium	–	ΔTm	10.1 ± 0.6 K
Cc1cc(F)cc2c(CCC(=O)N[C@@H]3C(=O)NC[C@H]3O)c(-c3ccc(F)cc3)[nH]c12	sodium channel site 2	binding	–	10 µM	–	inhibition	-1%
C[C@H](CCC(C)(C)O)[C@H]1CC[C@H]2[C@@H]3CC=C4C[C@@H](O)CC[C@]4(C)[C@H]3CC[C@]12C	NMDA receptor, rat	ion current, potentiator	rat hippocampal neurons	2 µM, added: NMDA 1 mM	–	potentiation	78.7 ± 8.83%
C#CCOc1cc(C(=O)Nc2cc(OCCN)c3ccccc3n2)nc(C(=O)Nc2cc(OCCN)c3ccccc3n2)c1	c-kit2 G-quadruplex DNA	FRET melting	–	1 µM, pH 7.4, added: 60 mM potassium	–	ΔTm	11.5 ± 1 K

A few entries again:
SMILES	target or system	assay	test system	conditions	how to read	measurement	result
NCCOc1cc(NC(=O)c2cccc(C(=O)Nc3cc(OCCN)c4ccccc4n3)n2)nc2ccccc12	double-stranded DNA	FRET melting	–	1 µM, pH 7.4, 60 mM potassium, added: oligonucleotide 200 nM	–	delta Tm	0 ± 0.1 K
NCCOc1cc(C(=O)Nc2cc(OCCN3CCCC3)c3ccccc3n2)nc(C(=O)Nc2cc(OCCN3CCCC3)c3ccccc3n2)c1	human telomeric G-quadruplex DNA	FRET melting	–	1 µM, pH 7.4, added: 60 mM potassium	–	ΔTm	35.5 ± 0.9 K
C#Cc1cc(-c2cc(Nc3nc(N[C@@H](C)c4ccc(F)cn4)ncc3Cl)n[nH]2)ccc1C=O	EGFR del746-750 T790M (human)	kinase activity	–	200 nM	–	inhibition	4.67% and 4.41%
O=c1oc2c(O)c(O)cc3c(=O)oc4c(O)c(O)cc1c4c23	OCI-Ly1	–	–	0.5 µM, 120 h	–	viability	86.3%
c1ccc(-c2n[nH]cc2-c2ccnc3ccccc23)nc1	orf19.4575 kinase Candida albicans	MIB/MS competition binding	Candida albicans cell lysate	10 µM	baseline: DMSO, lower = stronger binding	log2 fold change	1.62
